Measured values from different studies.
Numbered parts are unrelated; each lists some results of a single study. Positions count from the first letter of the parent shown.

Block 1
Target: XBP1, bZIP domain (human)
Method: DHFR protein complementation
Sample: yeast
Setting: single substitutions, most at no-binding floor
Reference: wild-type JUN-FOS pair
Direction: higher = stronger binding
Starting sequence: JUN, bZIP domain (human); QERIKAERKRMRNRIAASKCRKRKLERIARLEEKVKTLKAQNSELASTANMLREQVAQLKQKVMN; partner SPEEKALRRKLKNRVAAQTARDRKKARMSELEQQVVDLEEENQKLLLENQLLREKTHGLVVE
Variant | binding fitness [natural log]
R30L | -0.251
L45V | -1.56
K36Y | -1.29
E32I | -1.42
L59R | -0.749
K34L | -1.05
R30Q | -0.227
E33D | -0.92

Block 2
Variant: T154F
Target: ABI1, truncated, D143A, DHFR fusion (Arabidopsis thaliana)
Method: DHFR PCA, deep sequencing
Sample: yeast
Setting: methotrexate growth selection, single substitutions
Reference: wild-type fitted maximum
Direction: higher = stronger binding
Starting sequence: PYL1, truncated, DHFR fusion (Arabidopsis thaliana); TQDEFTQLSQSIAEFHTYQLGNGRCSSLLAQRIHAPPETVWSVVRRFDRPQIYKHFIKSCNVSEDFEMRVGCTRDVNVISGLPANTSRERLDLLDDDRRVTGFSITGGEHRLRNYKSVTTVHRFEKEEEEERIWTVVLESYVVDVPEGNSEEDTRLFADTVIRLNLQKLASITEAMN; partner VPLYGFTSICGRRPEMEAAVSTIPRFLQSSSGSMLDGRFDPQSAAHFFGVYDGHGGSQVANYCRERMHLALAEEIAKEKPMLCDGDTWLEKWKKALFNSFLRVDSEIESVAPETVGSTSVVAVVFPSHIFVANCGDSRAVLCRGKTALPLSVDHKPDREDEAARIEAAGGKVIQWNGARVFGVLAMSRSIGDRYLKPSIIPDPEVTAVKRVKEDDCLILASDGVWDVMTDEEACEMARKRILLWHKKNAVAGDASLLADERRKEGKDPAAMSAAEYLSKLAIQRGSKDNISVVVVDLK
setting | relative binding score [%]
together with: (+)-ABA 0.032 µM | -14.9
together with: (+)-ABA 17 µM | 5.75
together with: (+)-ABA 710 µM | 18.2
together with: (+)-ABA 2500 µM | 41.2
together with: (+)-ABA 0 µM | -19

Block 3
Target: Prothrombin, mature alpha-thrombin (F2, Homo sapiens, UniProt P00734)
Method: aptamer microarray, sandwich
Molecule type: DNA with 2'F-ANA
Sample: in vitro
Tested at: 200 nM
Setting: whole 15-mer aptamer, many near background
Together with: Cy3 exosite-II aptamer, 400 nM
Direction: higher = stronger binding
Sequence: GGTTGGTGTGGTTGG
Modification | mean fluorescence intensity
2'F-ANA at 1 2 4 7 9 10 12 13 14 15 | 45 a.u.
2'F-ANA at 1 2 4 6 8 10 11 12 14 | 46.9 a.u.
2'F-ANA at 1 2 3 5 6 7 8 11 12 13 14 | 49.3 a.u.
2'F-ANA at 1 4 7 9 15 | 133 a.u.
2'F-ANA at 1 3 12 13 15 | 499 a.u.
2'F-ANA at 1 2 4 5 6 7 | 54.8 a.u.
2'F-ANA at 1 2 3 4 5 6 7 8 9 11 13 15 | 66.2 a.u.
2'F-ANA at 4 6 7 8 9 12 14 | 104 a.u.

Single results of other studies
Sequence | target | test | test system | setting | endpoint | result
MTFPVSLEY | HLA class I histocompatibility antigen, A alpha chain, allele A*80:01 (Homo sapiens, UniProt P04439) | peptide-MHC binding | peptide | concentration not given | binding | active

For quick reference, copied from above (block 2):
setting | relative binding score [%]
together with: (+)-ABA 0.032 µM | -14.9
together with: (+)-ABA 17 µM | 5.75
together with: (+)-ABA 710 µM | 18.2
